# Measurements collected from several papers.
# Protocols differ between the studies behind these lines. Values joined by “and” are separate records of one study, mostly repeats; a detail may differ. ± gives the spread as reported.
Structure (SMILES),test,system,setting,scale,measurement,value
COc1ccc(C(=O)OCOP(=O)(CC/C=C(\C)COC(C)=O)Oc2ccc(C(C)C)cc2)cc1 (stereo not drawn),,50% CD1 mouse plasma,"100 µM, 2 h, pH 7.5, 37 °C",,remaining compound,0%
CC[C@@H](C)[C@@H](NC(C)=O)C(=O)N[C@@H](CC(C)C)C(=O)N[C@@H](CCCNC(=N)N)C(=O)N[C@@H](Cc1c[nH]c2ccccc12)C(=O)N[C@@H](CO)C(=O)N[C@@H](CCCNC(=N)N)C(=O)N[C@@H](CCCCN)C(=O)N[C@@H](CC(C)C)C(=O)N1CCC[C@H]1C(=O)N[C@@H](CS)C(=O)N[C@H](C(=O)N[C@@H](CO)C(N)=O)C(C)C,"12G5 competition, SUP-T1 cells",human plasma,"20 µM, 8 h, 37 °C",,remaining activity,71 ± 17%
NNc1ccccc1,,PBS,"18 h, 37 °C",relative to: initial amount,remaining fraction,0.23 and 0.28 and 0.24
CC[C@@H](C)[C@@H](NC(=O)[C@@H](Cc1ccc(O)cc1)NC(=O)[C@H]1CCCN1C(=O)[C@@H](CCCNC(=N)N)NC(=O)[C@H](N)Cc1c[nH]cn1)C(=O)N[C@H](C)C(=O)N[C@H](Cc1c[nH]cn1)C(=O)N[C@H](CCCNC(=N)N)C(=O)N[C@@H](C(=O)N[C@H](Cc1ccc(O)cc1)C(=O)N[C@H](CO)C(=O)N[C@H](Cc1ccccc1)C(N)=O)C(C)C,,10% human serum,2 h,,remaining compound,101% and 99.7%
CC(C)C[C@@H]1NC(=O)CNC(=O)[C@H](CC(N)=O)NC(=O)[C@H](CCCNC(=N)N)NC(=O)[C@H]([C@@H](C)O)NC(=O)[C@@H]2CSSC[C@@H]3NC(=O)[C@H]([C@@H](C)O)NC(=O)CNC(=O)CNC(=O)[C@H](C(C)C)NC(=O)[C@@H]4CSSC[C@H](NC(=O)[C@H]([C@@H](C)O)NC(=O)[C@H](CSSC[C@H](NC(=O)[C@H](C(C)C)NC(=O)[C@@H]5CCCN5C1=O)C(=O)NCC(=O)N[C@@H](CCC(=O)O)C(=O)N[C@@H](CCCCN)C(=O)N4)NC(=O)CNC(=O)[C@@H]1CCCN1C(=O)[C@H]([C@@H](C)O)NC(=O)[C@H](CC(N)=O)NC3=O)C(=O)N[C@@H](CO)C(=O)N[C@@H](Cc1c[nH]c3ccccc13)C(=O)N1CCC[C@H]1C(=O)N[C@@H](C(C)C)C(=O)N2,HPLC,ammonium bicarbonate 0.1 M,"180 µM, 7 days, pH 9.0, 37 °C, deamidation stability",,remaining peptide,77 ± 2.7%
CC[C@@H](C)[C@@H](NC(=O)[C@@H](Cc1ccc(O)cc1)NC(=O)[C@H]1CCCN1C(=O)[C@@H](CCCNC(=N)N)NC(=O)[C@H](N)Cc1c[nH]cn1)C(=O)N[C@H](C)C(=O)N[C@H](Cc1c[nH]cn1)C(=O)N[C@H](CCCNC(=N)N)C(=O)N[C@H](CCCCNC(=O)c1cccc(S(=O)(=O)F)c1)C(=O)N[C@H](Cc1ccc(O)cc1)C(=O)N[C@H](CO)C(=O)N[C@H](Cc1ccccc1)C(N)=O,,10% human serum,0 h,,remaining compound,107% and 87.6% and 106%
CC(C)C[C@@H]1NC(=O)CNC(=O)[C@H](CC(N)=O)NC(=O)[C@H](CCCNC(=N)N)NC(=O)[C@H](CCCCN)NC(=O)[C@@H]2CSSC[C@@H]3NC(=O)[C@H]([C@@H](C)O)NC(=O)CNC(=O)CNC(=O)[C@H](C(C)C)NC(=O)[C@@H]4CSSC[C@H](NC(=O)[C@H]([C@@H](C)O)NC(=O)[C@H](CSSC[C@H](NC(=O)[C@H](C(C)C)NC(=O)[C@@H]5CCCN5C1=O)C(=O)NCC(=O)N[C@@H](CCC(=O)O)C(=O)N[C@@H]([C@@H](C)O)C(=O)N4)NC(=O)CNC(=O)[C@@H]1CCCN1C(=O)[C@H]([C@@H](C)O)NC(=O)[C@H](CC(N)=O)NC3=O)C(=O)N[C@@H](CO)C(=O)N[C@@H](Cc1c[nH]c3ccccc13)C(=O)N1CCC[C@H]1C(=O)N[C@@H](C(C)C)C(=O)N2,HPLC,water,"180 µM, 14 days, 37 °C, deamidation stability",,remaining peptide,98.6 ± 0.5%
CC[C@H](C)[C@H](N)C(=O)N[C@H](CC(C)C)C(=O)N[C@@H](CCCNC(=N)N)C(=O)N[C@@H](Cc1c[nH]c2ccccc12)C(=O)N[C@@H](CO)C(=O)N[C@@H](CCCNC(=N)N)C(=O)N[C@@H](CCCCN)C(=O)N[C@@H](CC(C)C)C(=O)N1CCC[C@H]1C(=O)N[C@@H](CS)C(=O)N[C@H](C(=O)N[C@@H](CO)C(N)=O)C(C)C,"12G5 competition, SUP-T1 cells",human plasma,"concentration not given, 8 h",,remaining activity,57 ± 11%
O=C/C=C/c1ccccc1,,FaSSGF,"2 h, pH 1.65, 37 °C",,remaining concentration,270 ± 20 µg/mL
CCCCCCCCCCCCCCOC(=O)ONc1ccn([C@@H]2O[C@H](CO)[C@@H](O)[C@H]2O)c(=O)n1,,pooled human plasma,"2 µM, 30 min, 37 °C",,remaining parent compound,17%
CC(C)C[C@@H]1NC(=O)CNC(=O)[C@H](CC(N)=O)NC(=O)[C@H](CCCNC(=N)N)NC(=O)[C@H]([C@@H](C)O)NC(=O)[C@@H]2CSSC[C@@H]3NC(=O)[C@H]([C@@H](C)O)NC(=O)CNC(=O)CNC(=O)[C@H](C(C)C)NC(=O)[C@@H]4CSSC[C@H](NC(=O)[C@H]([C@@H](C)O)NC(=O)[C@H](CSSC[C@H](NC(=O)[C@H](CCCCN)NC(=O)[C@@H]5CCCN5C1=O)C(=O)NCC(=O)N[C@@H](CCC(=O)O)C(=O)N[C@@H]([C@@H](C)O)C(=O)N4)NC(=O)CNC(=O)[C@@H]1CCCN1C(=O)[C@H]([C@@H](C)O)NC(=O)[C@H](CC(N)=O)NC3=O)C(=O)N[C@@H](CO)C(=O)N[C@@H](Cc1c[nH]c3ccccc13)C(=O)N1CCC[C@H]1C(=O)N[C@@H](C(C)C)C(=O)N2,HPLC,ammonium bicarbonate,"180 µM, 7 days, pH 9.0, 25 °C, deamidation stability",,remaining peptide,85 ± 7.7%
CSCC[C@H](NC(=O)[C@H](CCCNC(=N)N)NC(=O)[C@H](CCCNC(=N)N)NC(=O)[C@H](CCCCN)NC(=O)[C@H](C)NC(=O)[C@H](CCCNC(=N)N)NC(=O)CNC(=O)[C@@H](NC(=O)CCNC(=O)c1ccc2c(c1)C(=O)OC21c2ccc(O)cc2Oc2cc(O)ccc21)[C@@H](C)O)C(=O)N[C@@H](CSCB(O)O)C(=O)N[C@@H](Cc1ccc(O)cc1)C(=O)N[C@@H](CSCB(O)O)C(=O)N[C@@H](CCCNC(=N)N)C(=O)N[C@@H](CCCNC(=N)N)C(N)=O,HPLC peak area,50% human serum,"100 µM, 6 h, pH 7.4, 37 °C",relative to: 0 h,remaining peptide,68.1% and 71.2% and 70.7%
CC[C@H](C)[C@H](NC(=O)[C@H](Cc1ccccc1)NC(=O)[C@H](CCC(=O)O)NC(=O)[C@H](CCCCN)NC(=O)[C@H](C)NC(=O)[C@H](C)NC(=O)[C@H](CCC(N)=O)NC(=O)CNC(=O)[C@H](CCC(=O)O)NC(=O)[C@H](CC(C)C)NC(=O)[C@H](Cc1ccc(O)cc1)NC(=O)[C@H](CO)NC(=O)[C@H](CO)NC(=O)[C@@H](NC(=O)[C@H](CC(=O)O)NC(=O)[C@H](CO)NC(=O)[C@@H](NC(=O)[C@H](Cc1ccccc1)NC(=O)[C@@H](NC(=O)CNC(=O)[C@H](CCC(=O)O)NC(=O)[C@H](C)NC(=O)N(N)Cc1c[nH]cn1)[C@@H](C)O)[C@@H](C)O)C(C)C)C(=O)N[C@@H](C)C(=O)N[C@@H](Cc1c[nH]c2ccccc12)C(=O)N[C@@H](CC(C)C)C(=O)N[C@H](C(=O)N[C@@H](CCCNC(=N)N)C(=O)NCC(=O)N[C@@H](CCCNC(=N)N)C(=O)NCC(=O)O)C(C)C,HPLC-UV,Tris-HCl buffer,"0.1 mmol/l, 24 h, pH 7.4, 37 °C",,remaining peptide,> 96%
CC(C)[C@@H]1NC(=O)[C@@H]2CSSC[C@@H]3NC(=O)[C@H]([C@@H](C)O)NC(=O)[C@@H]4CSSC[C@H](NC(=O)[C@H](C(C)C)NC(=O)[C@@H]5CCCN5C(=O)[C@H](CCCCN)NC(=O)CNC(=O)[C@H](CC(N)=O)NC(=O)[C@H](CCCNC(=N)N)NC(=O)[C@H]([C@@H](C)O)NC(=O)[C@H](CSSC[C@H](NC(=O)[C@H]([C@@H](C)O)NC(=O)CNC(=O)CNC1=O)C(=O)N[C@@H](CC(N)=O)C(=O)N[C@@H]([C@@H](C)O)C(=O)N1CCC[C@H]1C(=O)NCC(=O)N4)NC(=O)[C@H](C(C)C)NC(=O)[C@@H]1CCCN1C(=O)[C@H](Cc1c[nH]c4ccccc14)NC(=O)[C@H](CO)NC3=O)C(=O)NCC(=O)N[C@@H](CCC(=O)O)C(=O)N[C@@H]([C@@H](C)O)C(=O)N2,HPLC,water,"180 µM, 14 days, 37 °C, deamidation stability",,remaining peptide,100%
CSCC[C@H](NC(=O)[C@H](CCCCN)NC(=O)[C@H](CCCNC(=N)N)NC(=O)[C@H](CO)NC(=O)[C@H](Cc1c[nH]c2ccccc12)NC(=O)[C@H](CCCNC(=N)N)NC(=O)[C@H](CC(C)C)NC(=O)[C@@H](CO)NC(C)=O)C(=O)N1CCC[C@H]1C(=O)N[C@@H](CS)C(=O)N[C@H](C(=O)N[C@@H](CO)C(N)=O)C(C)C,"12G5 competition, SUP-T1 cells",human plasma,"20 µM, 8 h, 37 °C",,remaining activity,52 ± 2%

# A few entries again:
Structure (SMILES),test,system,setting,scale,measurement,value
COc1ccc(C(=O)OCOP(=O)(CC/C=C(\C)COC(C)=O)Oc2ccc(C(C)C)cc2)cc1 (stereo not drawn),,50% CD1 mouse plasma,"100 µM, 2 h, pH 7.5, 37 °C",,remaining compound,0%
